Assay results collected from several papers.
Protocols differ between the studies behind these lines. Numbers after ± are the reported error.
rep main protease: Replicase polyprotein 1ab, main protease (rep, Severe acute respiratory syndrome coronavirus 2, UniProt P0DTD1)
rep nsp14 N7-methyltransferase: Replicase polyprotein 1ab, nsp14 N7-methyltransferase (rep, Severe acute respiratory syndrome coronavirus 2, UniProt P0DTD1)

Compound | target or system | assay | system | conditions | quantity | value
O=C(NCC[C@@H]1c2ccccc2CCN1C(=O)c1ncnc2[nH]ccc12)c1ccc[n+]([O-])c1 | rep main protease | enzyme activity, inhibitor | – | 5 µM, run 1 | inhibition | 12.8%
CCC[C@H](NC(=O)[C@H](CC(C)C)NC(=O)OCc1ccccc1)C(=O)C(=O)NCc1ccccc1 | rep main protease | thermal stability, DSF | – | – | ΔTm | -0.07 °C
C[C@H]1c2cccc(O)c2C(=O)C2=C(O)[C@]3(O)C(=O)C(C(N)=O)=C(O)[C@@H](N(C)C)[C@@H]3[C@@H](O)[C@@H]21 | rep main protease | reporter gene (Gaussia luciferase), inhibitor | – | 20 µM | inhibition | 3.89%
C#CC1(C(=O)NC[C@H](NC(=O)c2cncc3[nH]ccc23)c2ccc3ccccc3c2)CC1 | rep main protease | enzyme activity, inhibitor | – | 5 µM, run 2 | inhibition | 13.9%
O=[N+]([O-])c1cc(O)c(O)c([N+](=O)[O-])c1 | rep nsp14 N7-methyltransferase | N7-methyltransferase activity, inhibitor, Py-FLINT | – | – | Hill slope | 0.77 ± 0.07
C[Se]C[C@H](N)C(=O)O | rep main protease | reporter gene (mKate2), inhibitor | – | 20 µM | inhibition | -0.644%
CC[C@H](C)[C@H](NC(=O)[C@H](CC(C)C)NC(=O)[C@H](Cc1c[nH]c2ccccc12)NC(=O)[C@H](CCC(N)=O)NC(=O)[C@@H](NC(=O)[C@H](Cc1ccccc1)NC(=O)[C@H](C)NC(=O)[C@H](CCCCNC(=O)COCCOCCNC(=O)COCCOCCNC(=O)CC[C@H](NC(=O)CCCCCCCCCCCCCCCCCCC(=O)O)C(=O)O)NC(=O)[C@H](CCC(N)=O)NC(=O)[C@H](C)NC(=O)[C@@H](NC(=O)[C@H](CCCCN)NC(=O)[C@H](CC(=O)O)NC(=O)[C@H](CC(C)C)NC(=O)C(C)(C)NC(=O)[C@@H](NC(=O)[C@H](CO)NC(=O)[C@H](Cc1ccc(O)cc1)NC(=O)[C@H](CC(=O)O)NC(=O)[C@H](CO)NC(=O)[C@@H](NC(=O)[C@H](Cc1ccccc1)NC(=O)[C@@H](NC(=O)CNC(=O)[C@H](CCC(=O)O)NC(=O)C(C)(C)NC(=O)[C@@H](N)Cc1ccc(O)cc1)[C@@H](C)O)[C@@H](C)O)[C@@H](C)CC)[C@@H](C)CC)C(C)C)C(=O)N[C@@H](C)C(=O)NCC(=O)NCC(=O)N1CCC[C@H]1C(=O)N[C@@H](CO)C(=O)N[C@@H](CO)C(=O)NCC(=O)N[C@@H](C)C(=O)N1CCC[C@H]1C(=O)N1CCC[C@H]1C(=O)N1CCC[C@H]1C(=O)N[C@@H](CO)C(N)=O | – | – | healthy subjects, single ascending dose | 1.0 mg, day 29 | serum ALT | 14.6 ± 4.4 U/L
O=C(O)CNC(=O)CC1SC(=NN=Cc2c(-c3ccccc3)[nH]c3ccccc23)NC1=O (stereo not shown) | rep nsp14 N7-methyltransferase | N7-methyltransferase activity, inhibitor, Py-FLINT | – | – | Hill slope | 1.12 ± 0.12
Cl[TeH]1(Cl)(Cl)OCCO1 | rep main protease | reporter gene (Gaussia luciferase), inhibitor | – | 20 µM | inhibition | 2.87%
Nc1ncnc2c([C@@H]3N[C@H](CO)[C@@H](O)[C@H]3O)c[nH]c12 | Marburg virus | viral replication, antibody staining | HeLa, Musoke | 50 µM, 12 h | infected cells | 0.9%
CC(C)c1cccc(NC(=O)C2CC(=O)Nc3ccccc32)c1 (stereo not shown) | rep main protease | enzyme activity, inhibitor | SARS-CoV-2 | – | Hill slope | 1.44
N.N#Cc1ccc(N2CCC(c3ccc(C(=O)O)cc3)=N2)cc1Cl | Replicase polyprotein 1ab, nsp14 methyltransferase (rep, Severe acute respiratory syndrome coronavirus 2, UniProt P0DTD1) | – | – | – | lipophilic ligand efficiency | 1.3
CCCc1ccc(OCC(=O)N(Cc2nc(-c3cccnc3)no2)C(C)C)cc1 | rep main protease | reporter gene (mKate2), inhibitor | – | 20 µM | inhibition | 0.0309%
Cc1ccc2nc(-c3ccc(-c4ccccc4C(=O)O)o3)cc(C(=O)O)c2c1 | rep nsp14 N7-methyltransferase | N7-methyltransferase activity, inhibitor, Py-FLINT | – | – | Hill slope | 1.1 ± 0.06
O=C(NC[C@H](NC(=O)c1cncc2sccc12)c1ccc2ccccc2c1)c1cncs1 | rep main protease | enzyme activity, inhibitor | – | 5 µM, run 1 | inhibition | 14.4%
CCC(C(=O)Nc1cc(NC2CCNCC2)ccc1C)n1cc(Br)cc2nc(SCc3ccc(F)cc3)nc1-2 (stereo not shown) | Replicase polyprotein 1ab, papain-like protease (rep, Severe acute respiratory syndrome coronavirus 2, UniProt P0DTD1) | binding | – | – | koff | 0.04 s⁻¹
Cn1cnc(Cn2c(=O)[nH]/c(=N\c3cc4cn(C)nc4cc3Cl)n(Cc3cc(F)c(F)cc3F)c2=O)n1 | – | – | human, severe renal impairment, plasma | oral, 375 mg single dose | AUC(0-last) | 1510 µg·h/mL
COc1cc(O)cc2oc(-c3ccc(O)c(O)c3)c(O)c(=O)c12 | rep main protease | reporter gene (mKate2), inhibitor | – | 20 µM | inhibition | -0.543%
Cc1ccc(C)c(C(=O)N2CC[C@@H]([C@@H]3CCCN(C(=O)c4cccc5oc(=O)[nH]c45)C3)C2)c1 | rep main protease | enzyme activity, inhibitor | – | 5 µM, run 2 | inhibition | 11.2%

Some of these lines once more:
Compound | target or system | assay | system | conditions | quantity | value
O=C(O)CNC(=O)CC1SC(=NN=Cc2c(-c3ccccc3)[nH]c3ccccc23)NC1=O (stereo not shown) | rep nsp14 N7-methyltransferase | N7-methyltransferase activity, inhibitor, Py-FLINT | – | – | Hill slope | 1.12 ± 0.12
